{"data": "Measured values from different studies", "note": "Compare with care: the assays were run in different laboratories."}
{"SMILES": "CC(C)(C)OCC1NC(=O)C(C(=O)NC(C(=O)NC2C(=O)N3C2SC(C)(C)C3C(=O)O)c2ccccc2)=C1O (stereo not shown)", "organism": "Escherichia coli", "test": "broth microdilution", "system": "ATCC 25922 wild type", "setting": "together with: clavulanic acid 6 µg/mL", "measurement": "MIC", "value": "12.5 µg/mL"}
{"SMILES": "CO/N=c1\\cc2n(-c3ccc(Cl)cc3)c3ccccc3nc-2cc1Nc1ccc(Cl)cc1", "organism": "Neisseria meningitidis", "test": "bacterial growth", "system": "ATCC 13077", "setting": "24 h", "measurement": "MIC", "value": "> 30 µM"}
{"SMILES": "C[C@H]1[C@H](NC(=O)/C(=N\\OC(C)(C)C(=O)O)c2csc(N)n2)C(=O)N1S(=O)(=O)O", "organism": "Proteus vulgaris", "test": "agar dilution", "system": "ATCC 29905 susceptible", "measurement": "MIC", "value": "≤ 0.03 µg/mL"}
{"SMILES": "CNC(C)C1CCC(N)C(OC2C(N)CC(N)C(OC3OCC(C)(O)C(NC)C3O)C2O)O1 (stereo not shown)", "organism": "Salmonella enterica serovar Enteritidis", "test": "broth microdilution", "system": "clinical isolate RKI-No 205/14", "measurement": "MIC", "value": "1 µg/mL"}
{"SMILES": "N=C(N)c1cccc(OCc2ccc(COc3cccc(C(=N)N)c3)cc2)c1", "organism": "Escherichia coli", "system": "mcr-1 polymyxin-resistant", "setting": "20 h, compound alone", "measurement": "MIC", "value": "> 200 µg/mL"}
{"SMILES": "COCCOC(=O)C1=C(C)NC(C)=C(C(=O)OC/C=C/c2ccccc2)C1c1cccc([N+](=O)[O-])c1 (stereo not shown)", "organism": "Toxoplasma gondii", "test": "parasite growth, luciferase reporter", "system": "HFF, tachyzoite", "setting": "72 h", "measurement": "EC50", "value": "11.8 µM"}
{"SMILES": "C[C@H](NC(=O)CO/N=c1\\cc2n(-c3ccc(Cl)cc3)c3ccccc3nc-2cc1Nc1ccc(Cl)cc1)C(=O)OC(C)(C)C", "organism": "Neisseria meningitidis", "test": "bacterial growth", "system": "ATCC 13077", "setting": "24 h", "measurement": "MIC", "value": "> 30 µM"}
{"SMILES": "N=C(N)c1ccc(OCc2cc(Br)cc(COc3ccc(C(=N)N)cc3)c2)cc1", "organism": "Escherichia coli", "system": "552100", "setting": "in combination, checkerboard, together with: rifampicin", "measurement": "MIC", "value": "6.25 µg/mL"}
{"SMILES": "OC(Cn1cncn1)(Cn1cncn1)c1ccc(F)cc1F", "organism": "Cryptococcus neoformans", "system": "138, RPMI 1640", "setting": "24 h, 35 °C", "measurement": "MIC", "value": "25 µM"}
{"SMILES": "Nc1[nH]c(=O)ncc1F", "organism": "Cryptococcus neoformans", "test": "EUCAST broth dilution", "setting": "72 h, 37 °C, compound alone", "measurement": "MIC", "value": "31 µM"}
{"SMILES": "CC(C)(C)c1ccc(S(=O)(=O)/C=C/C#N)cc1", "organism": "Toxoplasma gondii", "test": "parasite growth", "system": "HFF, bradyzoite, glutamine-induced", "measurement": "EC90", "value": "7.24 µM"}
{"SMILES": "O=c1[nH]c(NCc2ccc(Cl)c(Cl)c2)nc2ncn(CCN3CCOCC3)c12", "organism": "Clostridioides difficile", "test": "agar dilution anaerobic", "system": "3584", "setting": "48 h", "measurement": "MIC", "value": "1 µg/mL"}
{"SMILES": "CCOC(=O)CNC(=O)CO/N=c1\\cc2n(-c3ccc(Cl)cc3)c3ccccc3nc-2cc1Nc1ccc(Cl)cc1", "organism": "Neisseria meningitidis", "test": "bacterial growth", "system": "ATCC 13077", "setting": "24 h", "measurement": "MIC", "value": "0.23 µM"}
{"SMILES": "Cc1ncc([N+](=O)[O-])n1CCO", "organism": "Clostridioides difficile", "test": "agar dilution anaerobic", "system": "ATCC 4381", "setting": "48 h", "measurement": "MIC", "value": "0.5 µg/mL"}
{"SMILES": "N=C(N)c1ccc(OCCC(CCOc2ccc(C(=N)N)cc2)c2ccccc2)cc1 (stereo not shown)", "organism": "Escherichia coli", "system": "mcr-3 polymyxin-resistant", "setting": "compound alone", "measurement": "MIC", "value": "> 200 µg/mL"}
{"SMILES": "O=c1[nH]c(NCc2ccc(Cl)c(Cl)c2)nc2ncn(CCCCCN3CCOCC3)c12", "organism": "Clostridioides difficile", "test": "agar dilution anaerobic", "system": "3584", "setting": "48 h", "measurement": "MIC", "value": "2 µg/mL"}
{"SMILES": "Cc1ccc(CCC(=O)Nc2nnc(S(N)(=O)=O)s2)cc1", "organism": "Levilactobacillus brevis", "system": "ATCC 14869", "measurement": "MIC", "value": "> 784 µM"}
{"SMILES": "Cc1c(CN(C)C(=O)/C=C/c2cnc3c(c2)CCC(=O)N3)oc2ccccc12", "organism": "Escherichia coli", "test": "broth microdilution", "system": "AR-0151", "measurement": "MIC", "value": "> 32 µg/mL"}
{"SMILES": "CCCCCCCCCC(=O)N[C@@H](Cc1c[nH]c2ccccc12)C(=O)N[C@H](CC(N)=O)C(=O)N[C@@H](CC(=O)O)C(=O)N[C@@H]1C(=O)NCC(=O)N[C@@H](CCCN)C(=O)N[C@@H](CC(=O)O)C(=O)N[C@H](C)C(=O)N[C@@H](CC(=O)O)C(=O)NCC(=O)N[C@H](CO)C(=O)N[C@@H]([C@H](C)CC(=O)O)C(=O)N[C@@H](CC(=O)c2ccccc2N)C(=O)O[C@@H]1C", "organism": "Staphylococcus aureus", "system": "SH1000", "setting": "together with: phosphatidylcholine, molar ratio 1", "measurement": "MIC", "value": "1 µg/mL"}
{"SMILES": "CCOCCn1cnc2nc(NCc3ccc(Cl)c(Cl)c3)[nH]c(=O)c21", "organism": "Clostridioides difficile", "test": "agar dilution anaerobic", "system": "3581", "setting": "48 h", "measurement": "MIC", "value": "2 µg/mL"}
{"SMILES": "O=C(CO/N=c1\\cc2n(-c3ccc(Cl)cc3)c3ccccc3nc-2cc1Nc1ccc(Cl)cc1)NCc1ccc2c(c1)CCO2", "organism": "Neisseria meningitidis", "test": "bacterial growth", "system": "ATCC 13077", "setting": "24 h", "measurement": "MIC", "value": "> 30 µM"}
{"SMILES": "CC(C)(C)Oc1ccc(CC2NC(=O)C(C(=O)NC(C(=O)NC3C(=O)N4C3SC(C)(C)C4C(=O)O)c3ccccc3)=C2O)cc1 (stereo not shown)", "organism": "Escherichia coli", "test": "broth microdilution", "system": "ATCC 25922 wild type", "setting": "no clavulanic acid", "measurement": "MIC", "value": "25 µg/mL"}
{"SMILES": "C=CCO/N=c1\\cc2n(-c3ccc(Cl)cc3)c3ccccc3nc-2cc1Nc1ccc(Cl)cc1", "organism": "Neisseria meningitidis", "test": "bacterial growth", "system": "ATCC 13077", "setting": "24 h", "measurement": "MIC", "value": "> 30 µM"}
{"SMILES": "CCCCCCCCCC(=O)N[C@@H](Cc1c[nH]c2ccccc12)C(=O)N[C@H](CC(N)=O)C(=O)N[C@@H](CC(=O)O)C(=O)N[C@@H]1C(=O)NCC(=O)N[C@@H](CCCN)C(=O)N[C@@H](CC(=O)O)C(=O)N[C@H](C)C(=O)N[C@@H](CC(=O)O)C(=O)NCC(=O)N[C@H](CO)C(=O)N[C@@H]([C@H](C)CC(=O)O)C(=O)N[C@@H](CC(=O)c2ccccc2N)C(=O)O[C@@H]1C", "organism": "Staphylococcus aureus", "test": "broth microdilution", "system": "MRSA USA300, Mueller-Hinton broth, Mg2+ 10 mg/L", "setting": "16 h, 37 °C, together with: Ca2+ 5 mM", "measurement": "MIC", "value": "0.25 µg/mL"}
{"SMILES": "CC(C)C1NC(=O)C(C(=O)NC(C(=O)NC2C(=O)N3C2SC(C)(C)C3C(=O)O)c2ccccc2)=C1O (stereo not shown)", "organism": "Escherichia coli", "test": "broth microdilution", "system": "ATCC 25922 wild type", "setting": "together with: clavulanic acid 6 µg/mL", "measurement": "MIC", "value": "12.5 µg/mL"}
{"SMILES": "NOCC(=O)O", "organism": "Nakaseomyces glabratus", "system": "CG2", "measurement": "MIC", "value": "1000 µg/mL"}
{"SMILES": "N=C(N)c1ccc(OCc2cccc(COc3ccc(C(=N)N)cc3)c2)cc1", "organism": "Escherichia coli", "system": "BW25113", "setting": "compound alone, vancomycin checkerboard", "measurement": "MIC", "value": "> 200 µg/mL"}
{"SMILES": "CO[C@H]1/C=C/O[C@@]2(C)Oc3c(C)c(O)c4c(c3C2=O)C2=NC3(CCN(CC(C)C)CC3)NC2=C(NC(=O)/C(C)=C\\C=C\\[C@H](C)[C@H](O)[C@@H](C)[C@@H](O)[C@@H](C)[C@H](OC(C)=O)[C@@H]1C)C4=O", "organism": "Mycobacteroides abscessus", "test": "broth microdilution", "system": "ATCC 19977", "measurement": "MIC", "value": "2 µM"}
{"SMILES": "C=C1C(=O)O[C@@H](CCCCCCCCCCCCC)[C@@H]1C(=O)O", "organism": "Nakaseomyces glabratus", "system": "CG2", "measurement": "MIC", "value": "32 µg/mL"}
{"SMILES": "N=C(N)c1ccc(OCc2cc(COc3ccc(C(=N)N)cc3)cc(-c3ccccc3)c2)cc1", "organism": "Escherichia coli", "system": "BW25113", "setting": "compound alone", "measurement": "MIC", "value": "100 µg/mL"}
{"SMILES": "O=C(O)CNC(=O)CO/N=c1\\cc2n(-c3ccc(Cl)cc3)c3ccccc3nc-2cc1Nc1ccc(Cl)cc1", "organism": "Neisseria meningitidis", "test": "bacterial growth", "system": "ATCC 13077", "setting": "24 h", "measurement": "MIC", "value": "> 30 µM"}
{"SMILES": "CC[C@H](C)CCCCC(=O)N[C@@H](CCN)C(=O)N[C@H](C(=O)N[C@@H](CCN)C(=O)N[C@H]1CCNC(=O)[C@H]([C@@H](C)O)NC(=O)[C@H](CCN)NC(=O)[C@H](CCN)NC(=O)[C@H](CC(C)C)NC(=O)[C@@H](CC(C)C)NC(=O)[C@H](CCN)NC1=O)[C@@H](C)O", "organism": "Pseudomonas aeruginosa", "test": "broth microdilution", "system": "ATCC 27853, cation-adjusted Mueller-Hinton broth", "setting": "18 to 20 h, 37 °C, 0.002% polysorbate 80", "measurement": "MIC", "value": "0.5 µg/mL"}
{"SMILES": "CCc1cc(Nc2cc(=O)n(CCCCO)c(=O)[nH]2)ccc1C", "organism": "Clostridioides difficile", "test": "agar dilution anaerobic", "system": "3588", "setting": "48 h", "measurement": "MIC", "value": "1 µg/mL"}
{"SMILES": "N=C(N)c1ccc(OCc2ccc(Br)cc2COc2ccc(C(=N)N)cc2)cc1", "organism": "Escherichia coli", "system": "BW25113", "setting": "in combination, lowest-FICI combination, together with: vancomycin", "measurement": "MIC", "value": "100 µg/mL"}
